Measurements collected from several papers.
Target: Aryl hydrocarbon receptor (AHR, Homo sapiens, UniProt P35869)
One construct used (P35869 11-848): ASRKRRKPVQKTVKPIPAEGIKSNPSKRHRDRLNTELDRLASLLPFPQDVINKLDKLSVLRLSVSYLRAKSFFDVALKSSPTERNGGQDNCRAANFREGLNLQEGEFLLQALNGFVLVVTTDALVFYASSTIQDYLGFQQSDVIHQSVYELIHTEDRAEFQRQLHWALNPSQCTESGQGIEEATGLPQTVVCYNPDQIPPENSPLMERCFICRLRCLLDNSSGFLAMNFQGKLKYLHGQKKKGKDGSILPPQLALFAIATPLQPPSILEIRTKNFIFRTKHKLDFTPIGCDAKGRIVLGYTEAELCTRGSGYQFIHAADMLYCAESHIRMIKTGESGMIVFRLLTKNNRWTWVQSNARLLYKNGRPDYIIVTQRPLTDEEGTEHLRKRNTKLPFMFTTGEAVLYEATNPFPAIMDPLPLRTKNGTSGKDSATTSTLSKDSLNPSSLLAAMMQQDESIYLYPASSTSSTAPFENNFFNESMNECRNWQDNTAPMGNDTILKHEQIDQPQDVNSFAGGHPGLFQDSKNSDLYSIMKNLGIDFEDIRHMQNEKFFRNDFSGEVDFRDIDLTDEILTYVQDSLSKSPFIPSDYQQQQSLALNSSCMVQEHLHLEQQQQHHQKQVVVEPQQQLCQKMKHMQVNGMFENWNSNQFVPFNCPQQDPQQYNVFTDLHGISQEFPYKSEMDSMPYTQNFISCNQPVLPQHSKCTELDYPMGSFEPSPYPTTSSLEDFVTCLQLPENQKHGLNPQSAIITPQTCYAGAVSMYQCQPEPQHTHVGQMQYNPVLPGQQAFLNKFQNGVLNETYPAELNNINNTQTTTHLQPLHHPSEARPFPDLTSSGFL

Structure (SMILES)	test	system	conditions	scale	endpoint	result
Clc1ccc(-c2cc(Cl)ccc2Cl)cc1	reporter gene, antagonist	AZ-AHR cells	24 h, with: TCDD 4.5 nM		IC50	39 µM
COP(=S)(OC)Oc1nc(Cl)c(Cl)cc1Cl	agonist				EC50	5.1 µM
COc1cc(C(=O)N2CC[C@@H](O)[C@@H](N)C2)cc2nc(-c3cc4ccccc4n3CC3CC3)n(C)c12	agonist, FRET				EC50	79.4 µM
O=C(Nc1ccccc1-c1ccc(Cl)cc1)c1cccnc1Cl	agonist				EC50	> 100 µM
Cc1ccc2c(ccc3ccccc32)c1	reporter gene, agonist, yeast LacZ reporter	Saccharomyces cerevisiae	18 h		EC50	24.4 µM
Clc1cccc(-c2cccc(Cl)c2)c1	reporter gene, antagonist	AZ-AHR cells	24 h, with: TCDD 4.5 nM		IC50	37 µM
Cc1cc2ccccc2c2ccccc12	reporter gene, agonist, yeast LacZ reporter	Saccharomyces cerevisiae	18 h, 30 °C	relative to: 50% of 100 µM phenanthrene activity	EC50	7.83 µM
COC(=O)N(C(=O)N1COC2(C(=O)OC)Cc3cc(Cl)ccc3C2=N1)c1ccc(OC(F)(F)F)cc1 (racemic)	agonist				EC50	> 100 µM
Oc1cc(Cl)cc(-c2cccc(Cl)c2)c1	reporter gene, antagonist	AZ-AHR cells	24 h, with: TCDD 4.5 nM		IC50	18 µM

Some of these lines once more:
Structure (SMILES)	test	system	conditions	scale	endpoint	result
Clc1cccc(-c2cccc(Cl)c2)c1	reporter gene, antagonist	AZ-AHR cells	24 h, with: TCDD 4.5 nM		IC50	37 µM
